# Measured values collected from several papers.
# Protocols differ between the studies behind these lines. ± gives the spread as reported.
Compound,test,system,conditions,how to read,quantity,value
COc1ccc(-c2oc3ccccc3c(=O)c2OCc2ccccc2)cc1,,diabetic rat,"5 mg/kg, 28 days, p-nitrophenyl β-glucoside induced",,serum HDL cholesterol,51.1 ± 2.01 mg/dL
O=C1CCN(Cc2ccccc2)CC1C(C[N+](=O)[O-])c1ccccc1 (stereo not drawn),,mouse acetic acid writhing,"50 mg/kg, together with: haloperidol 1 mg/kg pretreatment",,analgesic activity,18%
CCCC[C@H](NC(=O)[C@@H](NC(=O)[C@H](CC(=O)O)NC(=O)[C@H](CCC(N)=O)NC(=O)[C@H](CC(C)C)NC(=O)[C@H](CC(C)C)NC(=O)[C@H](CCCN)NC(=O)[C@H](CCCNC(=N)N)NC(=O)[C@H](C)NC(=O)[C@H](CO)NC(=O)[C@H](CC(C)C)NC(=O)[C@H](CCC(N)=O)NC(=O)[C@H](CC)NC(=O)[C@H](CC(C)C)NC(=O)[C@@H](NC(=O)[C@H](CCCN)NC(=O)[C@H](CCCNC(=N)N)NC(=O)[C@H](Cc1ccc(O)cc1)NC(=O)[C@H](CO)NC(=O)[C@H](CCC(N)=O)NC(=O)[C@@H](NC(=O)[C@H](Cc1ccccc1)NC(=O)[C@@H](NC(=O)[C@H](C)NC(=O)[C@H](CC(=O)O)NC(=O)[C@H](C)NC(=O)CCc1ccc(O)cc1)[C@@H](C)CC)[C@@H](C)O)C(C)C)[C@@H](C)CC)C(=O)N[C@@H](CC(=O)O)C(=O)NCCCCNC(=N)N,"GH release, ELISA","male rat, anaesthetised, serum","intravenous, 1 µg/kg, 15 min",,serum GH level,198 ± 18.1 ng/mL
C=CC(=O)N1C[C@H](C)N(c2nc(OC[C@@]34CCCN3C[C@H](F)C4)nc3c(F)c(-c4ccc(F)c5sc(N)c(C#N)c45)c(C(F)(F)F)cc23)C[C@H]1C,,"NCI-H358 xenograft, mouse","oral, 0.3 mg/kg once daily, 28 days",,tumour volume reduction,20%
CCCCCCCCCCCCCCCC(=O)N[C@@H](CCCCN)C(=O)N[C@@H](CCCCN)C(=O)N[C@@H](CO)C(=O)N[C@@H](CCCNC(=N)N)C(=O)N[C@@H](C)C(=O)N[C@@H](CC(C)C)C(=O)N[C@@H](Cc1ccccc1)C(N)=O,,guinea pig,"intravenous infusion, 3 or 6 mg/kg, 15 min, together with: ADP 20 µM",,ex vivo platelet aggregation,no effect
CCCC[C@H](NC(=O)[C@@H](NC(=O)[C@H](CC(=O)O)NC(=O)[C@H](CCC(N)=O)NC(=O)[C@H](CC(C)C)NC(=O)[C@H](CC(C)C)NC(=O)[C@H](CCCN)NC(=O)[C@H](CCCNC(=N)N)NC(=O)[C@H](C)NC(=O)[C@H](CO)NC(=O)[C@H](CC(C)C)NC(=O)[C@H](CCC(N)=O)NC(=O)[C@H](CC)NC(=O)[C@H](CC(C)C)NC(=O)[C@@H](NC(=O)[C@H](CCCN)NC(=O)[C@H](CCCNC(=N)N)NC(=O)[C@H](Cc1ccc(O)cc1)NC(=O)[C@H](CO)NC(=O)[C@H](CCC(N)=O)NC(=O)[C@@H](NC(=O)[C@H](Cc1ccccc1)NC(=O)[C@@H](NC(=O)[C@H](C)NC(=O)[C@H](CC(=O)O)NC(=O)[C@@H](C)NC(=O)[C@H](Cc1ccc(O)cc1)NC)[C@@H](C)CC)[C@@H](C)O)C(C)C)[C@@H](C)CC)C(=O)N[C@@H](CC(=O)O)C(=O)N[C@@H](CCCNC(=N)N)C(=O)NC,"GH release, ELISA","male Sprague-Dawley rat, anaesthetised, serum","subcutaneous, 3 µg/kg, 0 min",,serum GH level,39.4 ± 5.3 ng/mL
[2H]C([2H])([2H])C(c1cc2nnc(-c3cc(F)ccc3F)n2nc1OCc1ncnn1C)(C([2H])([2H])[2H])C([2H])([2H])[2H],,amygdala-kindled Wistar rats,"oral, 1 mg/kg, 2 h before stimulation, Racine scale, unit not given",reference: baseline,seizure severity change,-1.8
Cc1ccc(C(=O)Nc2ccc(CP(=O)(O)O)cc2CP(=O)(O)O)cc1NC(=O)c1cccc(NC(=O)Nc2cccc(C(=O)Nc3cc(C(=O)Nc4ccc(CP(=O)(O)O)cc4CP(=O)(O)O)ccc3C)c2)c1,,human plasma,235 µM,,APTT,42.6 ± 5.8 s
COc1ccc2c(c1)c(CC(=O)OCC(=O)OC(C)(C)C)c(C)n2C(=O)c1ccc(Cl)cc1,hot plate test,BALB/c mice,"75 mg/kg, 30 min",,latency of nociceptive response,14.8 ± 0.53 s

# Excerpt of the above:
Compound,test,system,conditions,how to read,quantity,value
C=CC(=O)N1C[C@H](C)N(c2nc(OC[C@@]34CCCN3C[C@H](F)C4)nc3c(F)c(-c4ccc(F)c5sc(N)c(C#N)c45)c(C(F)(F)F)cc23)C[C@H]1C,,"NCI-H358 xenograft, mouse","oral, 0.3 mg/kg once daily, 28 days",,tumour volume reduction,20%
